Measurements of several laboratories.
Parts stem from different laboratories: compare values within a part only. “And” joins repeats or separate records; there may be more than shown.
Sequence of UniProt Q16853 (whole entry, looked up): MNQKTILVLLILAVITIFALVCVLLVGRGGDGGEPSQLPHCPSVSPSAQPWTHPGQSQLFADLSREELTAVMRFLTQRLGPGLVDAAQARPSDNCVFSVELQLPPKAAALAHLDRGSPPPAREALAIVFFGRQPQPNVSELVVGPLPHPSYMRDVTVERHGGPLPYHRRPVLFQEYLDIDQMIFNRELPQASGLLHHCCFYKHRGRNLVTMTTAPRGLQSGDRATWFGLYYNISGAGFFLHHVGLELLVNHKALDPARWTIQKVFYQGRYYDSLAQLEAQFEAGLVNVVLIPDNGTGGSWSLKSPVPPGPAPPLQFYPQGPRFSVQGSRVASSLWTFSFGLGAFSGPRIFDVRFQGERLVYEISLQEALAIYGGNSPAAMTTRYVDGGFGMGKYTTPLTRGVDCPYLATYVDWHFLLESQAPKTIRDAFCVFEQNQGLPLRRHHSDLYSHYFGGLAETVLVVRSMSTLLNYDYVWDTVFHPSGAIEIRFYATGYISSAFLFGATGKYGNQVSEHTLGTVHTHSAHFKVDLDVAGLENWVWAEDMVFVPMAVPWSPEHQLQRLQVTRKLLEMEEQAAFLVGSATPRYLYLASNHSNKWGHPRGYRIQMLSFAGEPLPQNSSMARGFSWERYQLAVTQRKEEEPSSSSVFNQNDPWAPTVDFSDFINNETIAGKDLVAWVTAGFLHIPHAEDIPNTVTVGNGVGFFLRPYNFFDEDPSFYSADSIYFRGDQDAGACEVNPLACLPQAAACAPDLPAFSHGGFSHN
Sequence of UniProt P30530 (whole entry, looked up): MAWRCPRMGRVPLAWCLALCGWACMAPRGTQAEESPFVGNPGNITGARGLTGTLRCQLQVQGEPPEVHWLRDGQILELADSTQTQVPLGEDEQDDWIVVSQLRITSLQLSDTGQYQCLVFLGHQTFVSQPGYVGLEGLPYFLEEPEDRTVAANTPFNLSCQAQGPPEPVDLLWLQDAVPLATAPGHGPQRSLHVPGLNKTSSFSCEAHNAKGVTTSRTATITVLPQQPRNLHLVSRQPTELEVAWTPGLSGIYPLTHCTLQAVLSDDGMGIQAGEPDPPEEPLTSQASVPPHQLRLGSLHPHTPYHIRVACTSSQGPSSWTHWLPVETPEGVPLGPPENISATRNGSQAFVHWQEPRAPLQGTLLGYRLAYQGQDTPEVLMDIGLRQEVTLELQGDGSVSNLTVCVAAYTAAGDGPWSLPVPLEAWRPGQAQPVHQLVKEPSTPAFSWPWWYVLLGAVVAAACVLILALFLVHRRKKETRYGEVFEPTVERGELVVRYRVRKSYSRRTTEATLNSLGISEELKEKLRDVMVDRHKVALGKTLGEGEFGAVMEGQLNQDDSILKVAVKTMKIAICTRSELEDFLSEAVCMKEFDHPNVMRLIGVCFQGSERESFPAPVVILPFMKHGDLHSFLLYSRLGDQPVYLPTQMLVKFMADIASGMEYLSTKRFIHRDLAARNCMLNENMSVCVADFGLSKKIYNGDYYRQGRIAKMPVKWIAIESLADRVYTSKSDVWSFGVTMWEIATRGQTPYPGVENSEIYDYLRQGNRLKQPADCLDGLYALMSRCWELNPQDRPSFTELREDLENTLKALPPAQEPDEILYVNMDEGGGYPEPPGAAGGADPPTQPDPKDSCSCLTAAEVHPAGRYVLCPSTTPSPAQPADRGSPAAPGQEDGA
Sequence of UniProt Q9UQB9 (whole entry, looked up): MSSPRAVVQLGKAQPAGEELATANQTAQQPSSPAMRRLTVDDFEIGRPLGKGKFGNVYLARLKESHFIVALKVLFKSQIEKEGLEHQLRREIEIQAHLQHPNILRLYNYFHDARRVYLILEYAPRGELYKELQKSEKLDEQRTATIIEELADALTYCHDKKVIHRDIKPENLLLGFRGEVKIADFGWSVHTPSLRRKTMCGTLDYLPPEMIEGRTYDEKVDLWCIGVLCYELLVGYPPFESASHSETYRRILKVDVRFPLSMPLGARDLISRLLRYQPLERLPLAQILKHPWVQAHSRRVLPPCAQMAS
Sequence of UniProt Q96RR4 (whole entry, looked up): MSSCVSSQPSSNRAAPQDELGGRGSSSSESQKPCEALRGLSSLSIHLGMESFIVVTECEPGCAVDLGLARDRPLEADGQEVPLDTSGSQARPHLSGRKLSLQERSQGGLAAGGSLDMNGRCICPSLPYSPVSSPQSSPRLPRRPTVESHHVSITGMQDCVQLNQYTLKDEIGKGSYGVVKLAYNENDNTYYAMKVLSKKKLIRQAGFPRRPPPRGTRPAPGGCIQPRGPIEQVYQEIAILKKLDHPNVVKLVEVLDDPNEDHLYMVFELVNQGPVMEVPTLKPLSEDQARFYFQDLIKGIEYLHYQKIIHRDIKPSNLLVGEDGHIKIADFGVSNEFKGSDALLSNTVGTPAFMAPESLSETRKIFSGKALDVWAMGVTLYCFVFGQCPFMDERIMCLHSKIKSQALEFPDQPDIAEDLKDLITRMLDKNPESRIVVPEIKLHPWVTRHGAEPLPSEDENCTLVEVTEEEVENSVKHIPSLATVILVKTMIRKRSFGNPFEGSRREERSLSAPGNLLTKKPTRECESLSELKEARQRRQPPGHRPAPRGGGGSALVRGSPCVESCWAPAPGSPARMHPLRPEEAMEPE

Set 1
Compound: C[C@@H]1CN(c2ccc(-c3cc(C(=O)NCCOCCOCCOCCOCCOCCOCCNC(=O)/C=C/c4[nH]cc(C(=O)N[C@@H](CC(N)=O)c5ccc(F)c(Cl)c5)c4-c4ccc(Cl)cc4F)ccc3F)cc2NC(=O)c2ccc(F)cc2C(F)(F)F)C[C@H](C)N1C
Observed: thermal unfolding
Method: differential scanning fluorimetry
Tested at: 5.5 µM
Direction: higher = more unfolded
WDR5: WD repeat-containing protein 5 (WDR5, Homo sapiens, UniProt P61964)
DCAF1: DDB1- and CUL4-associated factor 1 (DCAF1, Homo sapiens, UniProt Q9Y4B6)
Sequence of UniProt Q9Y4B6 (whole entry, looked up): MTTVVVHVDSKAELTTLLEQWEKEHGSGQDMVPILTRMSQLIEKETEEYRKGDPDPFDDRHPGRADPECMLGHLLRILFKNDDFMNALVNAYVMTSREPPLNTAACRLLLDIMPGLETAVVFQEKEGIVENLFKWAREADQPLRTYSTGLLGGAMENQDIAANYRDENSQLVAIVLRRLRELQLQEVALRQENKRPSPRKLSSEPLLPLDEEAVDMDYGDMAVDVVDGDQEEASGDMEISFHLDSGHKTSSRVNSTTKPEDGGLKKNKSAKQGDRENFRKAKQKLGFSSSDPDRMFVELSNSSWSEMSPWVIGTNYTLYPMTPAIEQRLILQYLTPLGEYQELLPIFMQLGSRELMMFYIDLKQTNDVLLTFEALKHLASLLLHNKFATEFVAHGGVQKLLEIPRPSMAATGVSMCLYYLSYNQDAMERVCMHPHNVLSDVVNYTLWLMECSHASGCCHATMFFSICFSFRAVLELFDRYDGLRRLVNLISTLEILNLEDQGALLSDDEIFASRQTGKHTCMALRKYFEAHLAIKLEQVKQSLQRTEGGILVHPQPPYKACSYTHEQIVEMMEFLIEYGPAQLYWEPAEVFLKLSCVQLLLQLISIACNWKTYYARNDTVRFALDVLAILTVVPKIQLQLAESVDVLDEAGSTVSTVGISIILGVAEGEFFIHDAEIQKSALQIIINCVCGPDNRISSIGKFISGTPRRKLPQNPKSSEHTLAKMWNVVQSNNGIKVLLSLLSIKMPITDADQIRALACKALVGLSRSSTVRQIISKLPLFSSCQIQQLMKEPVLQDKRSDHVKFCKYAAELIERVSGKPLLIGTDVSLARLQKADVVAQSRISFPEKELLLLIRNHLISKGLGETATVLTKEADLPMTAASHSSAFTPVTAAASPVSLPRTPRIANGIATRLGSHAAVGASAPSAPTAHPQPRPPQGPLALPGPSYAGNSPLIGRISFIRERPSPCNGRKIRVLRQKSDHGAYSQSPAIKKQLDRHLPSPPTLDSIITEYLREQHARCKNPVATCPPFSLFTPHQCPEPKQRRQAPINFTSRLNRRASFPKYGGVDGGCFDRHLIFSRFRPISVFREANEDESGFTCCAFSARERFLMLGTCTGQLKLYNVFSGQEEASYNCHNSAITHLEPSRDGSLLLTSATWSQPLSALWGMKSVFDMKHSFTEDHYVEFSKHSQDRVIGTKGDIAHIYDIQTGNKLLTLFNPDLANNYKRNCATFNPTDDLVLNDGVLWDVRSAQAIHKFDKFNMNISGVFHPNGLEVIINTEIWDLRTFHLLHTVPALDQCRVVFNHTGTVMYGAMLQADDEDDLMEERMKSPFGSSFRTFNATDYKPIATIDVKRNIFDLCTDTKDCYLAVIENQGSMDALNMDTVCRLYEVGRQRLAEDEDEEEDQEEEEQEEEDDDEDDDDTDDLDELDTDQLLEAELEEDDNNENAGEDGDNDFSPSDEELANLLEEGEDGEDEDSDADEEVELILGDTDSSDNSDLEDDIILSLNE
target	temperature	SYPRO Orange fluorescence
WDR5	44.8 °C	14600 a.u.
WDR5	31.8 °C	13700 a.u.
WDR5	82.81 °C	65100 a.u.
DCAF1	71.21 °C	47000 a.u.
DCAF1	66.61 °C	52000 a.u.
WDR5	88.41 °C	57200 a.u.
WDR5	41.6 °C	14300 a.u.
WDR5	45.2 °C	14600 a.u.
DCAF1	87.01 °C	34300 a.u.
WDR5	89.61 °C	55600 a.u.
WDR5	81.01 °C	65700 a.u.

Set 2
Structure (SMILES): CCN1/C(=C/C=C2\CCCC(/C=C/C3=[N+](CC)c4ccccc4C3(C)C)=C2NCCCCCCCCN2CCC(Nc3nc4ccccc4n3Cc3ccc(F)cc3)CC2)C(C)(C)c2ccccc21
Cell line: U-87 MG
Tested at: concentration not given
Reference: DMSO
measured	log2 fold change
TGDS mRNA	0.937
ZSWIM6 mRNA	0.836
EPHA2 mRNA	-2.21
GLB1L mRNA	-0.881
BEND7 mRNA	2.12
PHLDB2 mRNA	-1.74
FGF18 mRNA	2.63
ARSI mRNA	-2.84
XRCC2 mRNA	-1.71
EIF1 mRNA	0.913
TMEM74 mRNA	-1.06
TUBB6 mRNA	-1.43
ATP6V1G1 mRNA	0.839
TGFBR2 mRNA	-1.44
DNAJC1 mRNA	0.938
POC1B mRNA	1.03

Set 3
Compound: COc1cc(-c2nc3ccc(C(=O)NCCCN4CCN(c5cccc(C)c5C)CC4)cc3n2C2CCC2)cc(OC)c1OC
Observed: binding
Method: competition with immobilised ligand
Tested at: 1 µM
target	remaining binding
Aurora kinase C (AURKC, Homo sapiens, UniProt Q9UQB9)	100%
MAP3K6 (Homo sapiens, UniProt O95382)	79%
PRKAA2 (Homo sapiens, UniProt P54646)	86%
CSNK1G3 (Homo sapiens, UniProt Q9Y6M4)	97%
SRC (Homo sapiens, UniProt P12931)	71%
FGR (Homo sapiens, UniProt P09769)	94%
STK25 (Homo sapiens, UniProt O00506)	87%
CDKL1 (Homo sapiens, UniProt Q00532)	66%
CAMKK2 (Homo sapiens, UniProt Q96RR4)	87%
MATK (Homo sapiens, UniProt P42679)	94%
RIOK3 (Homo sapiens, UniProt O14730)	96%
AXL (Homo sapiens, UniProt P30530)	94%
PHKG1 (Homo sapiens, UniProt Q16816)	100%
FES (Homo sapiens, UniProt P07332)	85%
CLK4 (Homo sapiens, UniProt Q9HAZ1)	98%
SYK (Homo sapiens, UniProt P43405)	78%
PRKACB (Homo sapiens, UniProt P22694)	100%
MAP3K4 (Homo sapiens, UniProt Q9Y6R4)	80%
HASPIN (Homo sapiens, UniProt Q8TF76)	72%

Set 4
Structure (SMILES): NC/C(=C\F)COc1cc(Cl)cc(-c2cc(=O)[nH]c(=S)n2CC(N)=O)c1
Observed: enzyme activity
Action: inhibitor
Method: fluorescence
MPO: Myeloperoxidase (MPO, Homo sapiens, UniProt P05164)
Sequence of UniProt P05164 (whole entry, looked up): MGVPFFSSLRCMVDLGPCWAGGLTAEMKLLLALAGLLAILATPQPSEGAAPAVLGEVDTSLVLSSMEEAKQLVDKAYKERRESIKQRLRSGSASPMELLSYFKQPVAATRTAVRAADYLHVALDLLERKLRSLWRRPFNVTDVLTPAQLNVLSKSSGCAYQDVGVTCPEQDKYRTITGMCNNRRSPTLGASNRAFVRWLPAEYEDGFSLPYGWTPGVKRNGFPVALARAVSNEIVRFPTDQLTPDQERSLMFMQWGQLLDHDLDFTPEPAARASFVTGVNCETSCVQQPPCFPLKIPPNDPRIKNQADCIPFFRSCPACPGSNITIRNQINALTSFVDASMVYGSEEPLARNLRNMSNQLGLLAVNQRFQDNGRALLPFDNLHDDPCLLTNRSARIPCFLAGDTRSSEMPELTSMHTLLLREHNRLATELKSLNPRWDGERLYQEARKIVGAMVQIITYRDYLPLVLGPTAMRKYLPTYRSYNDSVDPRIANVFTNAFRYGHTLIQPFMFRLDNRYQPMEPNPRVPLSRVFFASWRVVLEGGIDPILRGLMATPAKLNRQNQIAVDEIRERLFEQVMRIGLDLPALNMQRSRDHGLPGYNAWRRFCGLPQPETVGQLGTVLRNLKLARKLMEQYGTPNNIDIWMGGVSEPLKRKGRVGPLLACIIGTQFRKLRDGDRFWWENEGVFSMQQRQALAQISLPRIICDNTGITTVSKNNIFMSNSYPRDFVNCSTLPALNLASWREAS
target	tested at	inhibition
MPO	3.333 µM	88%
MPO	0.1235 µM	41.9%
MPO	500 pM	-7.87%
MPO	30 µM	97.8%
AOC3 (Homo sapiens, UniProt Q16853)	1.5 nM	4.09% and -2.32% and 5.67%
MPO	800 pM	-3.61% and -11.3%
MPO	0.3704 µM	67.3%

Repeated from above (set 3):
target	remaining binding
SRC (Homo sapiens, UniProt P12931)	71%
FGR (Homo sapiens, UniProt P09769)	94%
STK25 (Homo sapiens, UniProt O00506)	87%
CDKL1 (Homo sapiens, UniProt Q00532)	66%
CAMKK2 (Homo sapiens, UniProt Q96RR4)	87%
MATK (Homo sapiens, UniProt P42679)	94%
RIOK3 (Homo sapiens, UniProt O14730)	96%
AXL (Homo sapiens, UniProt P30530)	94%
